Experimental data pooled from the literature.
A part holds a random share of what one study measured.

Sample 1 — technique: aptamer microarray, sandwich; form: DNA with 2'F-ANA; medium: in vitro; tested at: 200 nM; together with: Cy3 exosite-II aptamer, 400 nM; direction: higher = stronger binding; sequence: GGTTGGTGTGGTTGG
Target: Prothrombin, mature alpha-thrombin (F2, Homo sapiens, UniProt P00734)
Notes: whole 15-mer aptamer, many near background
Modification | mean fluorescence intensity [a.u.]
2'F-ANA at 6 7 12 13 15 | 473
2'F-ANA at 2 5 6 10 11 13 15 | 49.8
2'F-ANA at 3 4 6 8 9 11 12 14 15 | 229
2'F-ANA at 2 3 8 9 13 | 720
2'F-ANA at 2 7 9 10 12 15 | 195
2'F-ANA at 1 2 3 4 5 7 8 9 11 12 | 102

Sample 2 — technique: protein-binding microarray; form: double-stranded DNA, one strand shown; medium: in vitro; tested at: 2200 nM top; notes: 60-bp whole probe; together with: salmon DNA 0.4 mg/ml; reference: random background probes; direction: higher = stronger binding; all sequences stand within: GCCTAGCAC … GTCTTGATTCGCTTGACGCTGCTG
Target: Interferon regulatory factor 7, full length, phosphomimetic (IRF7, Homo sapiens, UniProt Q92985, residues 1-503, S471D/S472D/S475D/S476D/S477D/S483D/S484D/S487D)
Construct (chain): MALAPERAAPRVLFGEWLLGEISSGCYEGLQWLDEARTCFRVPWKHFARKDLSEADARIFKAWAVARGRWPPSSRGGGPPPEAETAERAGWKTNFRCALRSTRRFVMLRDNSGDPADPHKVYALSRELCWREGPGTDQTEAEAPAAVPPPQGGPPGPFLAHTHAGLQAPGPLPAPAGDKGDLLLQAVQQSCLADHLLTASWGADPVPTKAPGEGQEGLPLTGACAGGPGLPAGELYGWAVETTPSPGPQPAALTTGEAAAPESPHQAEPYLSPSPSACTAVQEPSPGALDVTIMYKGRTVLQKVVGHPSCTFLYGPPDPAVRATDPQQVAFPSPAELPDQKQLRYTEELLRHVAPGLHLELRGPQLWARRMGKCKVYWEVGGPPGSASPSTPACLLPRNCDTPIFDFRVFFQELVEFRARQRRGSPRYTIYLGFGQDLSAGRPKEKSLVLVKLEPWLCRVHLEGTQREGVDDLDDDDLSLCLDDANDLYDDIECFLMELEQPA
Sequence | fitted relative affinity [z-score]
TTAGGAATGGACACTGGGTTAGTGCTA | -0.563
GACGGACTGGATTTCGGGACGTGCTAG | 0.448
TTAGGTTTCGACACTGGTTTAGTGCTA | 2.22
TTCTCTTTTATTTTTTTTATGTGCTAG | 2.65
TTAGGTTCCGGATTCGGTTAGTGCTAG | 3.41

Sample 3 — target: human cyclin B2; effect on: peptide binding; technique: yeast competitive growth sequencing; form: peptide; organism: Saccharomyces cerevisiae; strain: cyclin B2-Cln2 fusion; tested at: concentration not given; notes: peptide tiling library; direction: direction not given
Sequence | binding enrichment score
DWDTVERQEEEAPSWD | 0.405
YLYLLLTQSLWCRV | 0.261
LKGRRLVFDN | 0.501
SPPRGRRLFPPGPAGF | -0.565
RQVRRDLFAF | -0.156
TLPYDLACTGGDFVLF | -0.184
SFLIEYEFLIPPSLKP | -0.165

Other studies, line by line
Molecule | target | assay | test system | conditions | scale | quantity | value
PhoQ, residues 284 288 289 292 302 303 MLMVEA | PhoP, residues 12 14 15 18 19 NNFVT (Escherichia coli, UniProt P23836) | Sort-seq, item: YFP reporter | E. coli | PhoQ-PhoP variant library, together with: 10 µM Mg2+ | reference: high Mg2+ state, higher = stronger signaling | fold induction | 12.8

Repeated from above (sample 1):
Modification | mean fluorescence intensity [a.u.]
2'F-ANA at 2 3 8 9 13 | 720
2'F-ANA at 2 7 9 10 12 15 | 195
